Results gathered from unrelated publications.
Every numbered part comes from another study and shows a few of its results, in no order.
Sequence of UniProt P53779 (whole entry, looked up): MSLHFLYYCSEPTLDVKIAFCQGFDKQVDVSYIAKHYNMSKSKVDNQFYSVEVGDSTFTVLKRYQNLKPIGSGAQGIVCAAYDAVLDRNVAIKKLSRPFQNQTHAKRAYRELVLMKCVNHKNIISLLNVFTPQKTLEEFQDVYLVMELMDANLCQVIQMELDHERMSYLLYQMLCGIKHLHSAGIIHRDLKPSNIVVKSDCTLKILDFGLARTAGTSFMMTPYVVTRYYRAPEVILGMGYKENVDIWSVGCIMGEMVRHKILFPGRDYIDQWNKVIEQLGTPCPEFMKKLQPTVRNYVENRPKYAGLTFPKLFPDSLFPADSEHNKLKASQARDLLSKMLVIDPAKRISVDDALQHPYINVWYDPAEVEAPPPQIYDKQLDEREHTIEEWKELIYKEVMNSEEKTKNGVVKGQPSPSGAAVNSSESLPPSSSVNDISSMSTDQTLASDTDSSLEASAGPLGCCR
Sequence of UniProt P62344 (whole entry, looked up): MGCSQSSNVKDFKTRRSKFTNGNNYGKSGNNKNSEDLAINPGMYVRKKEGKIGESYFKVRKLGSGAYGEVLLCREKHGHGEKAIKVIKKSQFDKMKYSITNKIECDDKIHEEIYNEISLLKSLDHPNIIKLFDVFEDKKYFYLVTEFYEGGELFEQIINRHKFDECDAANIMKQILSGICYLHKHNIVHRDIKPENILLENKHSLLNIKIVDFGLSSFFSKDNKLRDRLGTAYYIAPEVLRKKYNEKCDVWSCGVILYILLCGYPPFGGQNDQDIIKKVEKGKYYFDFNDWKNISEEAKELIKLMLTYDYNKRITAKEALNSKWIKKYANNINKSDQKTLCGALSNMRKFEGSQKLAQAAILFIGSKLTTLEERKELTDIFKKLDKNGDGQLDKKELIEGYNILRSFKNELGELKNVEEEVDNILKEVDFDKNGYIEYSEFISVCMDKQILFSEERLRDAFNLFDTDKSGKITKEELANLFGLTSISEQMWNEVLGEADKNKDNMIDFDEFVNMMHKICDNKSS
Sequence of UniProt Q16832 (whole entry, looked up): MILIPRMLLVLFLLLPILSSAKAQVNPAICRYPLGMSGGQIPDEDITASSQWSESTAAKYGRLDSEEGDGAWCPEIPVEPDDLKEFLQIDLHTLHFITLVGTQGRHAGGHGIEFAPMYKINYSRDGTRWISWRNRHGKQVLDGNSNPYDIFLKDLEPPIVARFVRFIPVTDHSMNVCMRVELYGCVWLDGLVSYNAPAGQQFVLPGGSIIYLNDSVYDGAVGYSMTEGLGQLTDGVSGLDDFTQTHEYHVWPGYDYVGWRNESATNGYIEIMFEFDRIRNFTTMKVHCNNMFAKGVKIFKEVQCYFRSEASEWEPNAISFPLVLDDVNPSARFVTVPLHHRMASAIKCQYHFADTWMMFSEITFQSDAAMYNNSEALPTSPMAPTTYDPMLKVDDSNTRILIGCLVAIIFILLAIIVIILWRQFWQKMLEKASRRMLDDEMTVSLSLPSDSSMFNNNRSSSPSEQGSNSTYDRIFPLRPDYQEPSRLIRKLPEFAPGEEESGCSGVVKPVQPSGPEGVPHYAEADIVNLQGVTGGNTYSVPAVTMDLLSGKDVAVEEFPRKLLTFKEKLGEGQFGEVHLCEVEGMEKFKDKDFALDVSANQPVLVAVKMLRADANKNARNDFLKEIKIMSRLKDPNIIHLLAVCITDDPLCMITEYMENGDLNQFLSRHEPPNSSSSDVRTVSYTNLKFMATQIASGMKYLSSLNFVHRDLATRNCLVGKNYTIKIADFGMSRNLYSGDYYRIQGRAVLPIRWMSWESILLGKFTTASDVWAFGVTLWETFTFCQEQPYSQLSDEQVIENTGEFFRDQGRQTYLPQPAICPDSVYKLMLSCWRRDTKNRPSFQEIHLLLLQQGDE
Sequence of UniProt Q06187 (whole entry, looked up): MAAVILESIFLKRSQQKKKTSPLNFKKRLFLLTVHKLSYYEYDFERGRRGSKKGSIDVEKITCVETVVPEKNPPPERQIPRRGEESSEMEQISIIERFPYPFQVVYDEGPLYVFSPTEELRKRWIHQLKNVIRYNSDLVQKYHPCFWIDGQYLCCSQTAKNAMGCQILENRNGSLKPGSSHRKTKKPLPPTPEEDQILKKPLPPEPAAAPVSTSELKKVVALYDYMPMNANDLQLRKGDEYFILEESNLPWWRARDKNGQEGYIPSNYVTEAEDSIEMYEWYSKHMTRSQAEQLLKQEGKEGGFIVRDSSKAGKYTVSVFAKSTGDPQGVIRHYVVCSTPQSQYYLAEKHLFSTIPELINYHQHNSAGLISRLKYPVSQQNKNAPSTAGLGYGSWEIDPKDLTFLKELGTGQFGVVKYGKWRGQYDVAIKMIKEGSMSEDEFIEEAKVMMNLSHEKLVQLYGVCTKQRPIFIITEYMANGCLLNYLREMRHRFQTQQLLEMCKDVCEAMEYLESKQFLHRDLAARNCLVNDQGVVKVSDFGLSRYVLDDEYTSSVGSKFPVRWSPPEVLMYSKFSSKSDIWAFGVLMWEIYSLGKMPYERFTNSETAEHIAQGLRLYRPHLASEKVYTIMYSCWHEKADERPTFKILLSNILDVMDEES
Sequence of UniProt Q00535 (whole entry, looked up): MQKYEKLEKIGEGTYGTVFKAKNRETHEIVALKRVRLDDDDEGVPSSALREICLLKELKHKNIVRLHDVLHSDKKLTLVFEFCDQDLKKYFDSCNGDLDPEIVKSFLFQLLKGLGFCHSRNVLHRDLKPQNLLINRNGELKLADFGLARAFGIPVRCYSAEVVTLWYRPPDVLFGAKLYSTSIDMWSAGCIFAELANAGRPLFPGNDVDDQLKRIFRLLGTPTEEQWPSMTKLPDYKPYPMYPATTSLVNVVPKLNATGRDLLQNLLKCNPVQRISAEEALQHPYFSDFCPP
Sequence of UniProt Q00536 (whole entry, looked up): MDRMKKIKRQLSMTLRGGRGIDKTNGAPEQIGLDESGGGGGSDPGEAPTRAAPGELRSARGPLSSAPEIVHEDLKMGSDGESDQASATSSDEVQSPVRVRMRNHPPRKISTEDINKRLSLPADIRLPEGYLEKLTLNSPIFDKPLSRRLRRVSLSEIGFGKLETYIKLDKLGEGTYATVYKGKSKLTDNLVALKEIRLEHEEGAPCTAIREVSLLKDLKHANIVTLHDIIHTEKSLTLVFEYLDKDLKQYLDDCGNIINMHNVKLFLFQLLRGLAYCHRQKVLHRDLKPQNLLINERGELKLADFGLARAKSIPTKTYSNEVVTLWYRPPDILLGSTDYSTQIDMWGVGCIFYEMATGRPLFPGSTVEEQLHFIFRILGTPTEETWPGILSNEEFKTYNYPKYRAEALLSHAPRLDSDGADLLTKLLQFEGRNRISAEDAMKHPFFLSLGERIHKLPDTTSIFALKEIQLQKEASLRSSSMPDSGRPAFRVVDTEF

Set 1 — cell line: U-87 MG; tested at: concentration not given; baseline: DMSO
SMILES: CCN1/C(=C/C=C2\CCCC(/C=C/C3=[N+](CC)c4ccccc4C3(C)C)=C2NCCCCCCCCN2CCC(Nc3nc4ccccc4n3Cc3ccc(F)cc3)CC2)C(C)(C)c2ccccc21
measured	log2 fold change
DYRK3 mRNA	1.61
SH3RF1 mRNA	0.96
BTN3A2 mRNA	-1.27
SLC22A15 mRNA	1.64
TIFA mRNA	1.19
NPIPA2 mRNA	0.947
DZIP1L mRNA	-1.46
ERO1B mRNA	1.64
GDF5 mRNA	-3.83
FANCL mRNA	-0.932
CCDC28B mRNA	-1.57

Set 2 — tested at: 1 µM
Compound: CC[C@@]1(c2cccc(C(F)(F)F)c2)C2=C(Nc3n[nH]cc31)[C@H](F)C(C)(C)CC2=O (single isomer, unassigned)
target	observed	technique	baseline	remaining binding [%]
Serine/threonine-protein kinase ULK1 (ULK1, Homo sapiens, UniProt O75385)	binding	competition with immobilised ligand		98
Mitogen-activated protein kinase 10 (MAPK10, Homo sapiens, UniProt P53779)	kinase binding	KINOMEscan	DMSO control	64
Myosin-IIIa (MYO3A, Homo sapiens, UniProt Q8NEV4)	kinase binding	KINOMEscan	DMSO control	100
Cyclin-G-associated kinase (GAK, Homo sapiens, UniProt O14976)	binding	competition with immobilised ligand		65
Cyclin-dependent kinase 5 (CDK5, Homo sapiens, UniProt Q00535)	kinase binding	KINOMEscan	DMSO control	100
Cyclin-dependent kinase 16 (CDK16, Homo sapiens, UniProt Q00536)	kinase binding	KINOMEscan	DMSO control	99
Serine/threonine-protein kinase SIK1 (SIK1, Homo sapiens, UniProt P57059)		KINOMEscan		100
Protein kinase C iota type (PRKCI, Homo sapiens, UniProt P41743)	binding	competition with immobilised ligand		91
Calcium-dependent protein kinase 1 (CDPK1, Plasmodium falciparum, UniProt P62344)	kinase binding	KINOMEscan	DMSO control	100
Discoidin domain-containing receptor 2 (DDR2, Homo sapiens, UniProt Q16832)	kinase binding	KINOMEscan	DMSO control	98
Mast/stem cell growth factor receptor Kit (KIT, Homo sapiens, UniProt P10721, L576P)	binding	competition with immobilised ligand		89
Phosphatidylinositol 4,5-bisphosphate 3-kinase catalytic subunit alpha isoform (PIK3CA, Homo sapiens, UniProt P42336, I800L)	binding	competition with immobilised ligand		24

Set 3 — observed: thermal unfolding; technique: differential scanning fluorimetry; tested at: 5.5 µM; reading: higher = more unfolded
SMILES: C[C@@H]1CN(c2ccc(-c3cc(C(=O)NCCOCCOCCOCCOCCNC(=O)/C=C/c4[nH]cc(C(=O)N[C@@H](CC(N)=O)c5ccc(F)c(Cl)c5)c4-c4ccc(Cl)cc4F)ccc3F)cc2NC(=O)c2c[nH]c(=O)cc2C(F)(F)F)C[C@H](C)N1C
WDR5: WD repeat-containing protein 5 (WDR5, Homo sapiens, UniProt P61964)
DCAF1: DDB1- and CUL4-associated factor 1 (DCAF1, Homo sapiens, UniProt Q9Y4B6)
Sequence of UniProt Q9Y4B6 (whole entry, looked up): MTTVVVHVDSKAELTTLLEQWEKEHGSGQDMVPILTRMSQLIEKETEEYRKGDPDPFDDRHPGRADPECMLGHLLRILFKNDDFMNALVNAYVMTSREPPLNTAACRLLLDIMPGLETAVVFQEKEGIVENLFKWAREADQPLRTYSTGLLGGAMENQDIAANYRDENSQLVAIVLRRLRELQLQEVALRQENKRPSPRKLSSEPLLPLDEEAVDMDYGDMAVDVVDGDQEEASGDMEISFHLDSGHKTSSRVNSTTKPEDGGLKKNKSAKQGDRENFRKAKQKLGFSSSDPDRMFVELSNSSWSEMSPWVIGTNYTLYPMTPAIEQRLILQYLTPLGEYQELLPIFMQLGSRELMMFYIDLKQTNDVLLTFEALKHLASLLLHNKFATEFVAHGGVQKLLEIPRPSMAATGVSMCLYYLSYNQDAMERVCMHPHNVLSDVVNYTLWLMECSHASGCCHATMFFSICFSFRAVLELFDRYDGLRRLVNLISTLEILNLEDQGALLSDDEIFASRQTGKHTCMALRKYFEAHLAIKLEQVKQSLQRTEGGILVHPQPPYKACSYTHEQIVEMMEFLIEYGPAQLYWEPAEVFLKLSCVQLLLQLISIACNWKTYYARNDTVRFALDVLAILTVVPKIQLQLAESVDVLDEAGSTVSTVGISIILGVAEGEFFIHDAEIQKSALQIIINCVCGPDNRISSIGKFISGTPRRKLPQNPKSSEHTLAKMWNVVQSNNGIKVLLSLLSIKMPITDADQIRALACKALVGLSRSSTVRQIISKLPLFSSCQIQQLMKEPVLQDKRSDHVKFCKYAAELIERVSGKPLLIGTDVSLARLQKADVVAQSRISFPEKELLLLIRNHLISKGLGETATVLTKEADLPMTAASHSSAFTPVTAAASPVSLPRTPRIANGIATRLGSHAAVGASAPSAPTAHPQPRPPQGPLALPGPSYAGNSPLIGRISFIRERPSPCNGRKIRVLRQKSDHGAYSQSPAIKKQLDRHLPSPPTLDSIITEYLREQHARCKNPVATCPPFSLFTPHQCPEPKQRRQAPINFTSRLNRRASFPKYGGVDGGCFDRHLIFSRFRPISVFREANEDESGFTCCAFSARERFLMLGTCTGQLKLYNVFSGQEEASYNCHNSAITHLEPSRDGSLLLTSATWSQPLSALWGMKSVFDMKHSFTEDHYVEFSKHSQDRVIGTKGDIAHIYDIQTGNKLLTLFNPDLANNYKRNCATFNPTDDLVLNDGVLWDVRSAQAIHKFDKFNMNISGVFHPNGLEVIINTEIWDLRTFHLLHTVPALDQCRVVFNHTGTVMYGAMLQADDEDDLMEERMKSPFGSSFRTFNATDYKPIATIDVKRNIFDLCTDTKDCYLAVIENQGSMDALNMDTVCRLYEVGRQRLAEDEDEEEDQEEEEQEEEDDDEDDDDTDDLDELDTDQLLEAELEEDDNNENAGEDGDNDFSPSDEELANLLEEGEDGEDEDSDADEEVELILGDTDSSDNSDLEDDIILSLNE
target	temperature	SYPRO Orange fluorescence [a.u.]
WDR5	55.61 °C	16900
WDR5	55.81 °C	16800
WDR5	78.81 °C	36900
WDR5	84.61 °C	51700
DCAF1	92.41 °C	32300
DCAF1	79.01 °C	46300
WDR5	65.41 °C	14000
DCAF1	28 °C	9010

Other studies, line by line
SMILES	target	observed	action	quantity	result
CN(C1COC1)C(C)(C)/C=C(\C#N)C(=O)N1CCC[C@H]1Cn1nc(-c2ccc(Oc3ccccc3)cc2F)c2c(N)ncnc21	Tyrosine-protein kinase BTK (BTK, Homo sapiens, UniProt Q06187)	enzyme activity	inhibitor	kinact	0.0047 s⁻¹

For quick reference, copied from above (set 2):
target	observed	technique	baseline	remaining binding [%]
Cyclin-G-associated kinase (GAK, Homo sapiens, UniProt O14976)	binding	competition with immobilised ligand		65
Cyclin-dependent kinase 5 (CDK5, Homo sapiens, UniProt Q00535)	kinase binding	KINOMEscan	DMSO control	100
Cyclin-dependent kinase 16 (CDK16, Homo sapiens, UniProt Q00536)	kinase binding	KINOMEscan	DMSO control	99
Serine/threonine-protein kinase SIK1 (SIK1, Homo sapiens, UniProt P57059)		KINOMEscan		100
